# Published values of several laboratories.
# By UniProt entry, the sequences of proteins in these tests, tags left out. Residues count along the entry.
# UniProt P19650, whole entry: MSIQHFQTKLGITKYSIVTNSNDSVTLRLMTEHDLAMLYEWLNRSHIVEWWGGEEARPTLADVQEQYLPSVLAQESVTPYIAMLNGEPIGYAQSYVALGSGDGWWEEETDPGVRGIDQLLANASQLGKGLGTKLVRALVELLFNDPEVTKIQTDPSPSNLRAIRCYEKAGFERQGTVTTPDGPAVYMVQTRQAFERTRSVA
# UniProt Q8WQX9, 1-930: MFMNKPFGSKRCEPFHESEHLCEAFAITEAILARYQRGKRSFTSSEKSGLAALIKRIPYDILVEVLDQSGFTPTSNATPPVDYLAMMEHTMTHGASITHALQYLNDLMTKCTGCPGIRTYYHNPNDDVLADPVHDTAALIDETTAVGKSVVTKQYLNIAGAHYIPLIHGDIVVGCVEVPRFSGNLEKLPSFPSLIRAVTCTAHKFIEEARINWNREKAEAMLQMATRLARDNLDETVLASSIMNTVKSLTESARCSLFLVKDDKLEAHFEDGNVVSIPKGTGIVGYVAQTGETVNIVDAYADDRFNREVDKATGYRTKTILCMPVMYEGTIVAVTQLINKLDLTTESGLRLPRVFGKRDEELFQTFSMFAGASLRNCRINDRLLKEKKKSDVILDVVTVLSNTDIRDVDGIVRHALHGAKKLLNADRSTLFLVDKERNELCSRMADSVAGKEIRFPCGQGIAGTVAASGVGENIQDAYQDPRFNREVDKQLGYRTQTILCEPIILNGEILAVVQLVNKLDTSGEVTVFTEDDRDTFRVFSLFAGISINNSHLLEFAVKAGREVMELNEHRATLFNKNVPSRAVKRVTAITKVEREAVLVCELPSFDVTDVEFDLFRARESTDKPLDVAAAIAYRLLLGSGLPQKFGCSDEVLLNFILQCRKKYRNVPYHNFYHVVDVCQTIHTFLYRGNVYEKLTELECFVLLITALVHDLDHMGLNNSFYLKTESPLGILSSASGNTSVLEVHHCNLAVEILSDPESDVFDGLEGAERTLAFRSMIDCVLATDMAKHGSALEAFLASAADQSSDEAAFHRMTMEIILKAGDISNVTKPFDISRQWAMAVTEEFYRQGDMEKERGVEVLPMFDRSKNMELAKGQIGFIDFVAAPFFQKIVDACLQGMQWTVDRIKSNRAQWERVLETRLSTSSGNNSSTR
# UniProt P05067, 672-713 limits assumed: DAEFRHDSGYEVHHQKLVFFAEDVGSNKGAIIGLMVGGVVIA
# UniProt P21917, whole entry: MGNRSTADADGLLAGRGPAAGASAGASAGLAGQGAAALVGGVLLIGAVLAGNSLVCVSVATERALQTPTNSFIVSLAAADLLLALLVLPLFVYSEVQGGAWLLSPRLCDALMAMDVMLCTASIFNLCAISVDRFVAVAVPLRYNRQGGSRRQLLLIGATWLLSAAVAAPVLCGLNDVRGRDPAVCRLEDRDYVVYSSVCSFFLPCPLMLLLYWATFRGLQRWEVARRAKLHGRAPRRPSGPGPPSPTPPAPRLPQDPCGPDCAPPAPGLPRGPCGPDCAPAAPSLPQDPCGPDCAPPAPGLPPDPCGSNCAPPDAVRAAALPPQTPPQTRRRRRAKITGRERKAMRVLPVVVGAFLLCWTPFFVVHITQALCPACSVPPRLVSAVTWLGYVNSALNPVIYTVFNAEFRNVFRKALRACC
# UniProt P06802, 92-905 isoform 2 limits assumed: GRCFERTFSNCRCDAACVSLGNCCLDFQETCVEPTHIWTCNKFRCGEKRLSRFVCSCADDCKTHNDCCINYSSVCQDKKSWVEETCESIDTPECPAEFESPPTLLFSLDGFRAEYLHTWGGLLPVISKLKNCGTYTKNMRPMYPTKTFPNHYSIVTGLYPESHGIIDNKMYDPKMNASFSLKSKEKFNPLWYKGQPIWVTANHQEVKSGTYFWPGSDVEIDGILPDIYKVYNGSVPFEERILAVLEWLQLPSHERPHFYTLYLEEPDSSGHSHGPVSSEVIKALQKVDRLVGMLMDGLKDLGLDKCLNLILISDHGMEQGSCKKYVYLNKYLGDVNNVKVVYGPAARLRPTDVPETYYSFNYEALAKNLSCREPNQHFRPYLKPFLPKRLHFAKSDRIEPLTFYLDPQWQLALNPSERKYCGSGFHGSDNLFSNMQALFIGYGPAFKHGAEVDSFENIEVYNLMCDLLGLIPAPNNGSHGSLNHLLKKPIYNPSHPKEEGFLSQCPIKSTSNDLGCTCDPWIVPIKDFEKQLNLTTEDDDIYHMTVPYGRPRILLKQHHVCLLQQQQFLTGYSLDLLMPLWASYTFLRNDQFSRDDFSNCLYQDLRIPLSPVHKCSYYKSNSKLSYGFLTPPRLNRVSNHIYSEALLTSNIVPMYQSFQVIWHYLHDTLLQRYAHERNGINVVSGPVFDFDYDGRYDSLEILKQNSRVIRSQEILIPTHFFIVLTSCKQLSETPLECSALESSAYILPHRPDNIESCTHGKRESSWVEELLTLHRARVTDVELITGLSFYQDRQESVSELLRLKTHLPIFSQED
# UniProt P00533, 25-1210 T790M limits assumed: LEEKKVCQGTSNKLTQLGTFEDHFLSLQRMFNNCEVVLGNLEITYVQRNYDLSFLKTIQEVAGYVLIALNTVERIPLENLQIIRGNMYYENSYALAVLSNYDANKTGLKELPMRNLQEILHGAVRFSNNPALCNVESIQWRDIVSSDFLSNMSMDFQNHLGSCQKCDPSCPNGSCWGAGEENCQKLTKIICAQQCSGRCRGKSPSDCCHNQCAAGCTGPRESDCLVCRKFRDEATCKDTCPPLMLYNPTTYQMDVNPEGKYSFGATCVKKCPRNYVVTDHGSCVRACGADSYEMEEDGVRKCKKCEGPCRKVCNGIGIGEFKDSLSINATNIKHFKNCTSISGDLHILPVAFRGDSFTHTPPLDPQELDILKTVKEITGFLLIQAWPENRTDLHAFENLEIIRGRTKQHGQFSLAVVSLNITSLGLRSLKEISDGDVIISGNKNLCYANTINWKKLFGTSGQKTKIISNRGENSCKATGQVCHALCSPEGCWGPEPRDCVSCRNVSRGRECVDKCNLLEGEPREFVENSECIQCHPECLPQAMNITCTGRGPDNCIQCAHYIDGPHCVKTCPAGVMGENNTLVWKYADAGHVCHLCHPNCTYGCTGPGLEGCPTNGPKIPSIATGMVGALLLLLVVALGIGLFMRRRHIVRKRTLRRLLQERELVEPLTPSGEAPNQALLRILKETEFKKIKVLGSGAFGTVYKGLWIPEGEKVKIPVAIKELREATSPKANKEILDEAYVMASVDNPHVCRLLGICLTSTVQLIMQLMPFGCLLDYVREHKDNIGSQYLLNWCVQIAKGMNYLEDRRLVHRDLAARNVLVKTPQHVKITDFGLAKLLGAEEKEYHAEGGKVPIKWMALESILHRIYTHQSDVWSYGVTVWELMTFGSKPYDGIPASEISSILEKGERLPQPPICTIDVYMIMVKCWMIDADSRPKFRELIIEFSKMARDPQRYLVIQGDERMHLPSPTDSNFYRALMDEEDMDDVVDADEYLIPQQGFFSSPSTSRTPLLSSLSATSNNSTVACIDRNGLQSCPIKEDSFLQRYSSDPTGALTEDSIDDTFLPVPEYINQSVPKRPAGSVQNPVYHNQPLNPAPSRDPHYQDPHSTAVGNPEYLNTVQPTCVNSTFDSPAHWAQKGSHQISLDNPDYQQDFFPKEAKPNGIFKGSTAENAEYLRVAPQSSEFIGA
# UniProt P06730, whole entry: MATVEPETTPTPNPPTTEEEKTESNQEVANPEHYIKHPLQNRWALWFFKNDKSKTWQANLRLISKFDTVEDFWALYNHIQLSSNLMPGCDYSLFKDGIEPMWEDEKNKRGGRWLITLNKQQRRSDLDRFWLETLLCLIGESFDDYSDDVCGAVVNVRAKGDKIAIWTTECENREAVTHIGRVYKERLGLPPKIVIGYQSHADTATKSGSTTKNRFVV
# Compare with care: the assays were run in different laboratories. Numbers after ± are the reported error.
# aacA4: Aminoglycoside N(6')-acetyltransferase type 1 (aacA4, Klebsiella pneumoniae, UniProt P19650)
# PDEB1: Class 1 phosphodiesterase PDEB1 (PDEB1, Trypanosoma brucei, UniProt Q8WQX9)
Compound,tested on,assay,test system,setting,how to read,quantity,value
CC(C)(O/N=C(\C(=O)NCB(O)O)c1csc(N)n1)C(=O)O,"ADC-7 beta-lactamase (Acinetobacter baumannii, UniProt Q6DRA1)",ESI-MS intact protein,,"15 min, with: enzyme 14 µM",,adduct mass,40600 Da
NCCNCCSc1ccccc1,,,mouse blood,"100 µg/mL, 30 min, 37 °C",,blood-to-plasma ratio,1.52 ± 0.09
CCCC[C@H](CN)NC[C@@H]1CCCN1C[C@@H](CO)NC[C@@H](NCCC12CC3CC(CC(C3)C1)C2)c1ccccc1,aacA4,acetyltransferase activity,,5 µM,,inhibition,> 70%
CCOc1cccc(Nc2c(C(N)=O)cnc3c(C)cc(-c4ccc5cnn(C)c5c4)cc23)c1,PDEB1,"enzyme activity, inhibitor",,10 µM,,inhibition,82 ± 12%
COc1ccc(S(=O)(=O)Nc2cccc(C(=O)NC3CCN(c4ncnc5[nH]cnc45)CC3)c2)cc1,A549-ACE2,,,0.03048 µM,,viability,103%
CN(C)c1cccc(Oc2cnc(Nc3ccccc3)nc2)c1,"APP (Homo sapiens, UniProt P05067)","inhibitor, ThT fluorescence",,"concentration not given, 26 h, 37 °C, with: amyloid-beta 42 12.5 µM",,amyloid-beta 42 aggregation,decreased
CC(CCN[C@H](CN[C@H](CO)CN1CCC[C@H]1CN[C@H](CN)c1ccccc1)c1ccccc1)c1ccccc1 (stereo partly drawn),aacA4,acetyltransferase activity,,5 µM,,inhibition,> 70%
COc1ccc(CN[C@@H]2CO[C@H](C(c3ccccc3)c3ccccc3)C[C@H]2O)cc1,"DRD4 (Homo sapiens, UniProt P21917)",radioligand binding,,"10 µM, with: [3H]N-methylspiperone",,inhibition,3.1%
COC(=O)[C@@H](CS)N1C(=O)c2ccc(N(C)C)cc2C1=O,"CA2 (Homo sapiens, UniProt P00918)",probe,,"10 µM, probe:protein 1:3",baseline: probe alone,fluorescence increase,4 to 5 fold
COc1cccc(Nc2ncc(Oc3cccc(N(C)C)c3)cn2)c1,"Amyloid-beta precursor protein, Aβ42 oligomers (APP, Homo sapiens, UniProt P05067)",in vitro clotting,,"20 µM, fibrinogen 1.5 µM plus thrombin, with: amyloid-beta 42 oligomers 3 µM",,fibrin clot turbidity,decreased
COc1cccc(Nc2c(C(N)=O)cnc3ccc(-c4ccc5cnn(C)c5c4)cc23)c1,PDEB1,"enzyme activity, inhibitor",,10 µM,,inhibition,84 ± 2.4%
O=c1ccn([C@@H]2O[C@H](COP(=O)(O)OP(=O)(O)OP(=O)(O)O)[C@@H](O)[C@]2(F)Br)c(=O)[nH]1,"Genome polyprotein, NS5B polymerase (Hepatitis C virus genotype 2a, UniProt Q99IB8)","polymerase activity, inhibitor","Hepatitis C virus, genotype 2a",,baseline: genotype 1b,IC50 fold change,1.9
COc1cc2ncnc(N3CCC(CCNS(N)(=O)=O)CC3)c2cc1OC,"Enpp1 (Mus musculus, UniProt P06802)",inhibitor,,with: cGAMP substrate,"baseline: pH 7.4 over pH 9, higher = weaker at pH 7.4",Ki ratio,100 fold
C=CC(=O)Nc1cc(-n2c(=O)ccc3cnc4ccc(-c5cn[nH]c5)cc4c32)ccc1C,"EGFR (Homo sapiens, UniProt P00533, T790M)",KinomeScan binding,,1 µM,,remaining binding,2%
Cc1ccc(-c2csc(NP(=O)(O)OCC3OC(n4c[n+](Cc5ccccc5)c5c(=O)[nH]c(NC(=O)c6ccccc6)nc54)C4OC(C)(C)OC34)n2)cc1 (stereo not drawn),"EIF4E (Homo sapiens, UniProt P06730)",item: EIF4E,MCF7,concentration not given,baseline: untreated,fold change,1.15

# Repeated from above:
Compound,tested on,assay,test system,setting,how to read,quantity,value
CCOc1cccc(Nc2c(C(N)=O)cnc3c(C)cc(-c4ccc5cnn(C)c5c4)cc23)c1,PDEB1,"enzyme activity, inhibitor",,10 µM,,inhibition,82 ± 12%
NCCNCCSc1ccccc1,,,mouse blood,"100 µg/mL, 30 min, 37 °C",,blood-to-plasma ratio,1.52 ± 0.09
